# Measurements of several laboratories.
# Lines come from different studies, so protocols differ. Numbers after ± are the reported error.
# Chain of UniProt P48426 (whole entry, looked up): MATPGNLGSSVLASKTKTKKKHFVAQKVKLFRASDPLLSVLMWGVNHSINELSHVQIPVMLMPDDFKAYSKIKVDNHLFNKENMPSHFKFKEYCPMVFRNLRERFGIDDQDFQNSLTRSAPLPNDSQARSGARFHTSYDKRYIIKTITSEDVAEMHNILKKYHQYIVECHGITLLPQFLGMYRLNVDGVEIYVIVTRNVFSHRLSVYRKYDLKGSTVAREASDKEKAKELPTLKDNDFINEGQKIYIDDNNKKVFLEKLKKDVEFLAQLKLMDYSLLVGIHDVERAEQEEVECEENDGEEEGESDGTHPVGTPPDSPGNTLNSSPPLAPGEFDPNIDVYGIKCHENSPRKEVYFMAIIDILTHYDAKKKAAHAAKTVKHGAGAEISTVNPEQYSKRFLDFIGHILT
# Chain of UniProt P42684 (whole entry, looked up): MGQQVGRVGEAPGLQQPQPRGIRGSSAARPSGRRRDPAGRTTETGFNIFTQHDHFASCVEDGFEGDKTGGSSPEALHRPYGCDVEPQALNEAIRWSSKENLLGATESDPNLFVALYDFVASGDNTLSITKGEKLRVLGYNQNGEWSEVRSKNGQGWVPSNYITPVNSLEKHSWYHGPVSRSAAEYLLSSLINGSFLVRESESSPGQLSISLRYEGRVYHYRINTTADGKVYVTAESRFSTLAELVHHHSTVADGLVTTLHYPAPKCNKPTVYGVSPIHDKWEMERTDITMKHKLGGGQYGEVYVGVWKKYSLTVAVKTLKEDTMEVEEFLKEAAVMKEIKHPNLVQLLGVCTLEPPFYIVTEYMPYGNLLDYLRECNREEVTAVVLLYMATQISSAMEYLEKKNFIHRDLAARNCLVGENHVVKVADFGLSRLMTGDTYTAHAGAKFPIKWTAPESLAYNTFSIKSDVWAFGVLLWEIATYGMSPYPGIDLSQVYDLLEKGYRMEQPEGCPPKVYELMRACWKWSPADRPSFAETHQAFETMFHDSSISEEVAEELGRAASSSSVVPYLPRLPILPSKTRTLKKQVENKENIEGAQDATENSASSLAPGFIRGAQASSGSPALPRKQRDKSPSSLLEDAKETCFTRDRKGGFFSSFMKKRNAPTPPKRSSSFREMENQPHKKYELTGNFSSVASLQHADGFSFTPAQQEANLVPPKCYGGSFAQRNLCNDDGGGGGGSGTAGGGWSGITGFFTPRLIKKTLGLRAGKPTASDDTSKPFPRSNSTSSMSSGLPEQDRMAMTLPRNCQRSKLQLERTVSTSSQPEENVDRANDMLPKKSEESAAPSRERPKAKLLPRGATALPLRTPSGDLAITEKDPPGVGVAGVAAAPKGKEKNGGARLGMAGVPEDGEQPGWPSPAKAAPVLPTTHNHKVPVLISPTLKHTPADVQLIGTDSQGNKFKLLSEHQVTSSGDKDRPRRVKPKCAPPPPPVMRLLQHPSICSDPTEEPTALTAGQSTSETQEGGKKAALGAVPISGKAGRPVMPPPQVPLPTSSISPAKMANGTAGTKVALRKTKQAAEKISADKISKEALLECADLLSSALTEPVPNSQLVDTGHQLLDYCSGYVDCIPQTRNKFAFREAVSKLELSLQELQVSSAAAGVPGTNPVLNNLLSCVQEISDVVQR
# Chain of UniProt Q13163 (whole entry, looked up): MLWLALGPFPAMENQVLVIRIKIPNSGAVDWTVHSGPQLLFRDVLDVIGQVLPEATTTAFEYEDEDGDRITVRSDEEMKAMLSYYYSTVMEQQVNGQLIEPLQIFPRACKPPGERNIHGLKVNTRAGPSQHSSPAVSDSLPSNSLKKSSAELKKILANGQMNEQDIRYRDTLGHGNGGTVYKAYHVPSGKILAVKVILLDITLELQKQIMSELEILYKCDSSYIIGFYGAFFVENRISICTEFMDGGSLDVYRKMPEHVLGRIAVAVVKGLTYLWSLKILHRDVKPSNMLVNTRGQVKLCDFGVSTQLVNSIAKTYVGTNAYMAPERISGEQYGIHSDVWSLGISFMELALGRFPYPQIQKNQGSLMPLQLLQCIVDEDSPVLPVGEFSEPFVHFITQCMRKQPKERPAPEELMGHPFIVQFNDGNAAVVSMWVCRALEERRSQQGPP
SMILES,target or system,test,system,setting,how to read,quantity,result
CC(C)[C@H]1NC(=O)C[C@H]2/C=C/CCSSC[C@@H](NC1=O)C(=O)N[C@H](Cc1cccc3ccccc13)C(=O)NCC(=O)O2,"ABL2 (Homo sapiens, UniProt P42684)","enzyme activity, inhibitor",,10 µM,,inhibition,4%
CCCCCCCCCC(=O)NCCCC[C@H](NC(=O)CCCCCCCCC)C(=O)N[C@@H](CCCCNC(=O)CCCCCCCCC)C(=O)NCC(=O)NCC(=O)NCC(=O)N[C@@H](CS)C(=O)N[C@@H](CCCNC(=N)N)C(=O)N[C@@H](CCCCN)C(=O)N1CCC[C@H]1C(=O)N[C@@H](CS)C(=O)N[C@@H](CCCNC(=N)N)C(=O)N[C@@H](CCCCN)C(=O)N1CCC[C@H]1C(N)=O,Candida albicans,broth microdilution,"fluconazole-resistant 56214, RPMI-1640","48 h, 30 °C",,MIC,32 µM
O=c1n(CCNCCOS(=O)(=O)c2ccccc2)c(=O)n(S(=O)(=O)c2ccccc2)c(=O)n1S(=O)(=O)c1ccccc1,Alternaria solani,"microbial growth, broth dilution",,,,MIC,32 µg/mL
[O-][N+]1=C(Cc2ccccc2)C2=NCCCN2c2ccccc21,Fusobacterium nucleatum,,,,,MIC,0.5 to 4 µg/mL
COc1ccccc1-c1n[nH]c2nc(NC3CCN(C(=O)Cc4ccc(F)cc4F)CC3)ncc12,,"bead binding, competition bead pull-down, measured: LINJ.24.2150",Leishmania donovani axenic amastigote extract,10 µM,relative to: vehicle,relative abundance,1.02
CC[C@H](C)[C@@H]1NC(=O)[C@@H]([C@@H](C)O)NC(=O)CNC(=O)[C@H](CC(=O)O)NC(=O)CNC(=O)[C@H](CC(=O)O)NC(=O)CNC(=O)[C@H]2CCCCN2C(=O)[C@@H](NC(=O)[C@H](CC(=O)O)NC(=O)/C=C/CCCCCCCCCC(C)C)CNC(=O)[C@@H]2CCCN2C1=O,Staphylococcus aureus,broth microdilution,"VISA LIM strain 2, Mueller-Hinton broth, Mg2+ 10 mg/L","16 h, with: Ca2+ 10 mM",,MIC,2 µg/mL
CCCCCCCC(=O)NCCCC[C@H](NC(=O)CCCCCCC)C(=O)N[C@@H](CCCCNC(=O)CCCCCCC)C(=O)NCC(=O)NCC(=O)NCC(=O)N[C@@H](CS)C(=O)N[C@@H](CCCNC(=N)N)C(=O)N[C@@H](CCCCN)C(=O)N1CCC[C@H]1C(=O)N[C@@H](CS)C(=O)N[C@@H](CCCNC(=N)N)C(=O)N[C@@H](CCCCN)C(=O)N1CCC[C@H]1C(=O)N[C@@H](CS)C(=O)N[C@@H](CCCNC(=N)N)C(=O)N[C@@H](CCCCN)C(=O)N1CCC[C@H]1C(=O)N[C@@H](CS)C(=O)N[C@@H](CCCNC(=N)N)C(=O)N[C@@H](CCCCN)C(=O)N1CCC[C@H]1C(N)=O,Candida albicans,broth microdilution,"CGMCC 2.209, RPMI-1640","48 h, 30 °C",,MIC,16 µM
C[N+]1=C2C(c3ccc(Cl)cc3)=[N+]([O-])c3ccccc3N2CCC1,Fusobacterium nucleatum,,,,,MIC,4 to 16 µg/mL
COc1ccccc1-c1n[nH]c2nc(N[C@H]3CC[C@H](NS(=O)(=O)CC(C)C)CC3)ncc12,,"bead binding, competition bead pull-down, measured: LINJ.26.1220",Leishmania donovani extract,10 µM,relative to: vehicle,relative abundance,1
O=C1NC2(CC2)COc2ncc(F)cc2[C@H]2COCCN2c2ccn3ncc1c3n2,,,"Sprague-Dawley rat, female, serum","oral, 20 mg/kg/day, 4 weeks daily, end of treatment",,potassium,3.96 ± 0.51 mmol/L
C=C1NC(=O)C2CSCC3NC(=O)C(CSC(C)C(NC(=S)C(Cc4cnc[nH]4)NC(=O)c4csc(C(C)NC(C)=O)n4)C(=O)N[C@H](CC(C)C(=O)NC(=O)CC(C(=O)O)NC(=O)C(C)NC3=O)C(=O)N2)NC(=O)[C@@H]2CCCN2C(=O)[C@@H](CC(C)C)NC1=O (stereo partly drawn),Candida glabrata,EUCAST broth microdilution,"clinical isolate, RPMI 1640 MOPS-buffered 2% glucose","48 h, pH 7.0, 24 °C",,MIC,> 32 µg/mL
CC(C)(C)C(=O)OCOP(=O)(OCOC(=O)C(C)(C)C)C1CCCN(O)C1=O (stereo not drawn),RPMI-8226,,,,,TGI,1120 nM
CCCCCCCC(=O)NCCCC[C@H](NC(=O)CCCCCCC)C(=O)N[C@@H](CCCCNC(=O)CCCCCCC)C(=O)NCC(=O)NCC(=O)NCC(=O)N[C@@H](CS)C(=O)N[C@@H](CCCNC(=N)N)C(=O)N[C@@H](CCCCN)C(=O)N1CCC[C@H]1C(=O)N[C@@H](CS)C(=O)N[C@@H](CCCNC(=N)N)C(=O)N[C@@H](CCCCN)C(=O)N1CCC[C@H]1C(N)=O,Candida albicans,broth microdilution,"SP 3876, RPMI-1640","48 h, 30 °C",,MIC,8 µM
CN(C)[C@H]1C[C@@]23CC[C@@]4(O2)C(=CC[C@]2(C)[C@@H](c5ccc6ccncc6c5)CC[C@H]24)C=C3[C@@H](O)[C@@H]1O,"MAP2K5 (Homo sapiens, UniProt Q13163)","ATP probe labelling, inhibitor, KiNativ profiling",,0.1 µM,,inhibition,-2.4%
CC[C@H](C)[C@H](N)C(=O)N[C@@H](CCCNC(=N)N)C(=O)N[C@H](C(=O)N[C@@H](Cc1c[nH]c2ccccc12)C(=O)N[C@@H](Cc1ccccc1)C(=O)N[C@H](C(=O)N[C@@H](CCCCN)C(=O)N[C@H](C(=O)N[C@@H](CCCNC(=N)N)C(=O)N[C@@H](CCCCN)C(=O)N[C@@H](CCSC)C(=O)N[C@@H](CCCCN)C(=O)N[C@@H](C)C(=O)N[C@H](C(=O)N[C@@H](Cc1ccc(O)cc1)C(=O)N[C@@H](Cc1c[nH]cn1)C(N)=O)[C@@H](C)CC)C(C)C)[C@@H](C)CC)C(C)C,Listeria monocytogenes,broth dilution,KCTC 13064,,,MIC,50 µM
C#CCNC(=O)[C@H]1NC(=O)[C@H]2NC(=O)[C@H](NC(=O)[C@@H]3NC(=O)[C@H](CC(N)=O)NC(=O)[C@H](NC(=O)[C@@H](CC(C)C)NC)[C@H](O)c4ccc(c(Cl)c4)Oc4cc3cc(c4O[C@@H]3O[C@H](CO)[C@@H](O)[C@H](O)[C@H]3O[C@H]3C[C@](C)(N)[C@H](O)[C@H](C)O3)Oc3ccc(cc3Cl)[C@H]2O)c2ccc(O)c(c2)-c2c(O)cc(O)cc21,Staphylococcus simulans,broth microdilution,"22, cation-adjusted Mueller-Hinton broth",,,MIC,0.168 µM
CC(=O)N[C@@H](CC(C)C)C(=O)N[C@H]1CSSC[C@@H](C(=O)N2CCC[C@H]2C(N)=O)NC(=O)[C@H]([C@@H](C)O)NC(=O)[C@H](C(C)C)NC(=O)[C@H]([C@@H](C)O)NC(=O)CNC(=O)[C@H](CC(C)C)NC(=O)[C@H](Cc2ccccc2)NC(=O)[C@H](Cc2ccc(O)cc2)NC(=O)[C@H](CC(C)C)NC(=O)[C@H](CCCCN)NC(=O)[C@H](Cc2ccccc2)NC(=O)[C@H](CCCNC(=N)N)NC(=O)[C@H](CCCCN)NC(=O)[C@H](CC(C)C)NC(=O)[C@H](CCCCN)NC(=O)[C@@H]2CCCN2C(=O)[C@H](CCCCN)NC(=O)[C@H](C(C)C)NC(=O)[C@H](CC(N)=O)NC(=O)[C@H](Cc2ccc(O)cc2)NC(=O)[C@H]([C@@H](C)O)NC1=O,Aeromonas hydrophila,broth dilution,,24 h,,MIC,2.5 to 5 µM
CCCCCCCC(=O)NCCCC[C@H](NC(=O)CCCCCCC)C(=O)N[C@@H](CCCCNC(=O)CCCCCCC)C(=O)NCC(=O)NCC(=O)NCC(=O)N[C@@H](CS)C(=O)N[C@@H](CCCNC(=N)N)C(=O)N[C@@H](CCCCN)C(=O)N1CCC[C@H]1C(N)=O,Candida albicans,broth microdilution,"SP 3903, RPMI-1640","48 h, 30 °C",,MIC,> 128 µM
CS(C)(=O)=Nc1ccc(-c2ccc(-c3nc4cc(O[C@@H]5CO[C@H]6[C@@H]5OC[C@H]6O)[nH]c4cc3F)cc2)cc1,"PIP4K2A (Homo sapiens, UniProt P48426)","enzyme activity, inhibitor",,10 µM,,inhibition,-3%
C=C(P(=O)(O)O)P(=O)(O)O,Candida albicans,"microbial growth, broth dilution",SC5314,24 h,,MIC,> 128 µg/mL
CC1(C)S[C@@H]2[C@H](NC(=O)[C@H](NC(=O)C3=C(O)C(c4ccccc4F)NC3=O)c3ccccc3)C(=O)N2[C@H]1C(=O)O (stereo partly drawn),Escherichia coli,broth microdilution,Keio mutant JW5086-3,"18 h, ferrienterobactin permease gene",,MIC,25 µg/mL
